Measurements collected from several papers.
Numbered parts are unrelated; each lists some results of a single study.

Block 1
Target: Cyclic AMP-responsive element-binding protein 1 (CREB1, Homo sapiens, UniProt P16220, residues 1-327, full length assumed)
Sequence of UniProt P16220 (whole entry, looked up): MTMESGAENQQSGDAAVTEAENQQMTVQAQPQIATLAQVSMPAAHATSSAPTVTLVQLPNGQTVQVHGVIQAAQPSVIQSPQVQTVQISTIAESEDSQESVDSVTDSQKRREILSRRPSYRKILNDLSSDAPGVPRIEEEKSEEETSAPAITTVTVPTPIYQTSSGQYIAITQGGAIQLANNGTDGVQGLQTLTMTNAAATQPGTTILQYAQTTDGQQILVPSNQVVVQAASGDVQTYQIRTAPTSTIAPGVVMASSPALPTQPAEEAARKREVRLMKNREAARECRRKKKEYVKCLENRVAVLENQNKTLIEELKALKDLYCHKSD
Method: protein-binding microarray
Form: double-stranded DNA, one strand shown
Matrix: in vitro
Concentration: not given
Setting: k-mer, scored over probes, only values ≥0.25
Direction: higher = stronger binding
Quantity: E-score
ACGTTAC: 0.323
ACATGAT: 0.256
ACGTCAT: 0.496
ATATTAC: 0.308
CACGTTA: 0.283
CGTCACA: 0.487
CGTAATA: 0.385
ACATCAT: 0.277
CATATAA: 0.27
CCGTGAC: 0.279
TAGATGA: 0.26
TGACGAA: 0.378
ATCATAA: 0.268
ACGTTAA: 0.276
ATACGTC: 0.344

Block 2
Target: RNA binding protein fox-1 homolog 2, RRM domain, GST-SBP tag (RBFOX2, Homo sapiens, UniProt O43251-10, residues 100-194)
Method: RNA Bind-n-Seq
Form: RNA
Matrix: in vitro
Concentration: 365 nM
Setting: natural RNA segment, single round, ends assumed
Baseline: no-protein control
Direction: higher = stronger binding
Quantity: RBNS enrichment (R)
Shared flanks, not repeated: GGGAGUUCUACAGUCCGACGAUC … UGGAAUUCUCGGGUGCCAA
Residues (chain): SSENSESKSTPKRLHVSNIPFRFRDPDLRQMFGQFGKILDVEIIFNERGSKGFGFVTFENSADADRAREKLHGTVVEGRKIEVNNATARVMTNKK
CCAGGAUGCUGCUGCAGGUGGCGUAUCAUCGUACACACUCAGUGACAUUUCUAUCACAAUCAUUUUAUGGAAGAUGUGUGAUAAUCUGUUUUUACUGGUAUUAAUAAACA: 0.344
GUUUUUGUUCUUUUUCUGAAGGUGGGGAGGGGAAUAUUCAUAUUGACUUUAUAUUUAAUACAUCUGCUGAUGCUUCGGGGCAUGUCCUGCCACAGGAUUUGCUAAUGUCU: 0.87
AGAUGAAUUGUUUUCAUCUGAAGCCUGCUAUCUUUUUUAAAAGAUGUGCUAUUUAUUCUUGCACGAUUUAGGCAAUUAUCUCUCUUCCAGGGAGUACCUUUUUUUCUAGU: 0.577
CAGAAUAGGCCCAUAUGAUAGGGCAACCCUGAGCUUAAACAAUGACAUCUUCAAGGGUAGAACUAAUCUGAAACCCCAUUCAGCCUAUUCCAGAAUGGGGAUAGGCUGAA: 0.267
UAUGACACAAGGCCAAUGGGGACCGGAGUACCAUGGCUCCUGUCCUUGGAUGGUCUCUUGUCCCUGAAUUUCAUUGUAUCAUGCAUGGAGAGAAAUGUUUGUCUUUCUGU: 6.93
GCCUGGAGGUGGGGGUGGGGGCAGCCAAGUCCAGCCACUCUUCACCUGGCUCCCUGCUCUGGGCCCUGCACCAGAGCUGCCACCCUCUUCUUUCUCCCCAGCCUUCUCAU: 0.351
CAGAAGGGGCUCUUCUCUCCACAGAGCUGGGGUGCAGCCCCAACAUGUGAUUUUGAAUGAGUGUAAAUAAUUUUAAAUAACCUGGCCCUUGGAAUAAAGUUGUUUUCUGU: 0.406
GCCUCCUACAGCAAGGACAGGAAUCAGACCGACUCCCUAGCUUACGCUCUGGGAGGGGUACUGGGUACCCCACCCUUCACUGAGGCCUUUGGAUUUGUCUCAGUGCCUUA: 0.217
ACUGUAUGCAUGUAGUGCACAAACACGUGACGGAGGAACACAUAAAAGGCUUGUAUGUGUUAUCAUUUAAGGUCACUGUUCCCAAUUAAAAGCCUUCAACCAUGAUUUUC: 1.55
UAAUCAUAGCUACUUCAGUUUUGUGUAUCUGUUCUCUGCAGAUGGUUUGAAACUGUAUAGGAAGAACAGGUAAAGGCAGGUGGAGUGCACACAGAUCGCACCACAUGGCU: 0.473
CAAGUCCCUUCCACCUAUGAGCCUGUAAAAUCAAAAGCAAGCUAGUUACUUCCUAGAUACCAACAGGGGUACAGGUAUUGAUUAAAGACGGCUGUUCCAAAUGGGAGAAA: 0.442
UUUGUAAAAGCCAGGCUUGGUAGUGGGCACCUGUCAUCCCAGCACUCAGGAGGCAGGGUCAGGAGGAUUACAGGUUCAAAGCCAGUCUGGUCUAUAUUAGAAAAAGAAAA: 0.631

Block 3
Target: Interferon regulatory factor 3, full length, phosphomimetic (IRF3, Homo sapiens, UniProt Q14653, residues 1-427, S386D/S396D/S398D/S402D/T404D/S405D)
Sequence of UniProt Q14653 (whole entry, unmodified, looked up): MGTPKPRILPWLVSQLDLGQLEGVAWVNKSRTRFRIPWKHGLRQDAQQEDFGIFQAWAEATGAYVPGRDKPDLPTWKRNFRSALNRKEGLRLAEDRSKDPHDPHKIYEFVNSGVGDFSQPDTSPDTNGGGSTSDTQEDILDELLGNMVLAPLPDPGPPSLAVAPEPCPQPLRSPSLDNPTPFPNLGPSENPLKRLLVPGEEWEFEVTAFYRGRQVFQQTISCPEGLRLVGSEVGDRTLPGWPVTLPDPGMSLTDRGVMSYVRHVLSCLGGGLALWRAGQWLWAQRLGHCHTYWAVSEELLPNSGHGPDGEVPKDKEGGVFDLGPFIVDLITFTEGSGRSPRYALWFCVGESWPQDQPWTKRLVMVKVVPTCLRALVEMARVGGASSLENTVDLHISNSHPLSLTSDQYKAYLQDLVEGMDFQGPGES
Method: protein-binding microarray
Form: double-stranded DNA, one strand shown
Matrix: in vitro
Concentration: 2540 nM top
Setting: 60-bp whole probe
With: salmon DNA 0.4 mg/ml
Baseline: random background probes
Direction: higher = stronger binding
Quantity: fitted relative affinity
Shared flanks, not repeated: GCCTAGCAC … GTCTTGATTCGCTTGACGCTGCTG
GACGGACTGCTTATCCAGACGTGCTAG: -0.317 z-score
TTAGGACTGTGTCTCGGTTAGTGCTAG: -0.371 z-score
AGCAAAAATGATTGGTTGAAGTGCTAG: -0.794 z-score
TTAGGTTTCCTGTTCCTTTAGTGCTAG: 4.43 z-score
GACGATTCCCTTTTCCTGACGTGCTAG: 3.77 z-score
TCAATCATTGTTTTCAGTTTGTGCTAG: 1.13 z-score
TTAGATATCGGGACTGGATCAGTGCTA: 0.0497 z-score
GGCGGACTGGGACTGGGGACGTGCTAG: -1.13 z-score
TATTTTCCTTTAAACTTTTAGTGCTAG: 5.14 z-score
ACCATTGTGGTTTTCATTATGTGCTAG: 1.62 z-score
GACGGACTGCTTCTCTTGACGTGCTAG: -0.423 z-score
GTAGGTCTCGGTATCGGTTAGTGCTAG: 2.62 z-score
GACGGTATCGAGACTGGGGACGTGCTA: 0.674 z-score
TCATTTCTCTTTCCTTCACTGTGCTAG: 4.24 z-score
GACTGTTTCCTTCTCCTGACGTGCTAG: 9.24 z-score
GACGGACTGCATCTCCTGACGTGCTAG: -0.372 z-score
TTAGGACTGGGTTTCGTTTAGTGCTAG: 1.76 z-score
GACGGTTGCGGTTCCGGGACGTGCTAG: 5.34 z-score
TCATTTCTTTCAAATGAAACTGTGCTA: 2.06 z-score
AACGGTTCCCTTTTCCTGACGTGCTAG: 6.02 z-score
TTAGGTTTCGACATTCGGTTAGTGCTA: 3.1 z-score
GTAGAACTGAGTCTCGATTAGTGCTAG: -0.377 z-score

Block 4
Target: Sal-like protein 4, full length isoform B (SALL4, Homo sapiens, UniProt Q9UJQ4-2, residues 1-616)
Method: universal PBM
Form: double-stranded DNA, one strand shown
Matrix: in vitro
Concentration: not given
Setting: 8-mer, flanks averaged, mean of replicates
Direction: higher = stronger binding
Quantity: E-score
ACTTGCTG: -0.0366
ATGAACCA: 0.211
AGGAAAAA: 0.265
TCCGAAAA: -0.0436
AGAAATAT: 0.419
ATGGTAGG: -0.0401
CTTACGCC: 0.0275
ACTATGAA: 0.335
CCGGCTCG: -0.229
GAGGAAGA: 0.00236
ATGTACCA: 0.14
ATGGCGAA: 0.0602
CCAATGCC: -0.196
AGCTTAAG: 0.0459
ACTAAGCC: -0.0814
AATACCTG: 0.0767
AGTCCCCC: -0.302
AGGGGTTA: -0.107

Block 5
Target: Prothrombin, mature alpha-thrombin (F2, Homo sapiens, UniProt P00734)
Method: aptamer microarray, sandwich
Form: DNA with 2'F-ANA
Matrix: in vitro
Concentration: 200 nM
Setting: whole 15-mer aptamer, many near background
With: Cy3 exosite-II aptamer, 400 nM
Direction: higher = stronger binding
Quantity: mean fluorescence intensity
Oligonucleotide: GGTTGGTGTGGTTGG
2'F-ANA at 1 2 3 5 6 10 11 13 14: 50.6 a.u.
2'F-ANA at 1 2 3 5 7 9 10 13 14 15: 43.5 a.u.
2'F-ANA at 1 4 6 8 9 11 12 13 14 15: 54.4 a.u.
2'F-ANA at 1 4 8 11: 130 a.u.
2'F-ANA at 2 3 5 7 9: 101 a.u.
2'F-ANA at 1 3 6 8 9 10 12 13 15: 100 a.u.
2'F-ANA at 3 4 9 12 13 15: 686 a.u.
2'F-ANA at 1 3 4 7 14: 78.9 a.u.
2'F-ANA at 2 3 4 5 9 10 12 14 15: 52.6 a.u.
2'F-ANA at 1 2 3 5 8 11 14: 45.6 a.u.
2'F-ANA at 1 2 5 6 9 11 13: 52.8 a.u.
2'F-ANA at 1 2 5 7 10 11 13 14: 46.5 a.u.
2'F-ANA at 1 3 5 6 7 8 9 10 11 13 15: 53.7 a.u.
2'F-ANA at 1 3 4 5 8 11: 53.4 a.u.
2'F-ANA at 1 3 5 7 8 9 10 14: 50.3 a.u.
2'F-ANA at 1 4 5 8 9 11 14: 43.3 a.u.
2'F-ANA at 3 5 6 9 12 14: 61.7 a.u.
2'F-ANA at 1 5 6 8 9 11 12 13 14: 48.2 a.u.
2'F-ANA at 1 3 7 9 10 11 12 14 15: 63.6 a.u.
2'F-ANA at 2 5 6 9 12 14: 47.5 a.u.
2'F-ANA at 1 5 9 10 11 13 14: 52.9 a.u.
2'F-ANA at 1 2 7 8 12 14 15: 87.3 a.u.
2'F-ANA at 2 3 4 7 9 10 11 14: 183 a.u.
2'F-ANA at 1 3 5 7 9 11 12 13: 75.2 a.u.
2'F-ANA at 1 3 7 8 9 11 14 15: 91.6 a.u.

Block 6
Target: Histone acetyltransferase KAT6A, winged helix 2, GST fusion (KAT6A, Homo sapiens, UniProt Q92794, residues 85-181)
Method: protein binding microarray
Form: double-stranded DNA, one strand shown
Matrix: in vitro
Concentration: not given
Setting: 8-mer, flanks averaged, mean of 2 arrays, mostly near background
Baseline: not given
Direction: higher = stronger binding
Quantity: E-score
Construct (chain): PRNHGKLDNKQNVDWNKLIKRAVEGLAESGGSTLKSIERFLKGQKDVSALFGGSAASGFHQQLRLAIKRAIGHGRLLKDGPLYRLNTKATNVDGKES
CCATTCGA: -0.058
ACAGCGCA: 0.215
CTGGAGGA: 0.00984
ACCTTCCG: 0.151
GAGCCAAA: -0.0666
TGTCGCAA: -0.0556
ACCTTGGA: -0.177
AATCATAG: 0.0348
AGATCGTA: -0.175
CACCCCGG: 0.0645
ACAAAAGC: 0.0799
AAGGGTCA: -0.0965
GGGTCTAC: -0.0702
CCTCAATC: 0.173
AAGTCGCC: -0.0297
CATGATTA: 0.024
CTAGCGCA: -0.0851
CAAGGCTA: 0.0652
GATGAGAC: 0.00337
CGTAACGA: -0.132
GGCGCAAC: 0.215
AGCGAAGA: 0.0122
ATTCCCCG: -0.00724
AGTTGCGC: -0.018
GTCCTTCA: 0.0632
